Experimental data of several laboratories.
Each line is one published result; not all experiments were run side by side. Values joined by “and” are separate records of one study, mostly repeats; a detail may differ. ± marks the error that the study gave.

Structure (SMILES)	target	assay	test system	conditions	scale	quantity	value
O=C(Nc1ccccc1)c1ccc(Nc2nnc(-c3ccc(O)cc3)c3ccccc23)cc1	TRPV1	nocifensive response	mouse	intraplantar, 10 µg		licking time	0 s
Cc1ncsc1-c1ccc(CNC(=O)[C@@H]2C[C@@H](O)CN2C(=O)[C@@H](NC(=O)C2(F)CC2)C(C)(C)C)c(OCCC2CCN(c3nc(NCC(C)(C)C4(O)CCOC4)nc(N4CCC[C@H]4Cn4ccnn4)n3)CC2)c1 (stereo partly shown)	VHL-elongin C-elongin B and BRD9	SPR	immobilized VHL-elongin C-elongin B		baseline: binary KD over ternary KD	cooperativity alpha	8.8
O=C(N/N=C/c1ccc(C[n+]2ccccc2)cc1)c1ccc2ccc(C(=O)N/N=C/c3ccc(C[n+]4ccccc4)cc3)nc2n1	MYC parallel G4 DNA	FRET melting		1 µM, DNA 0.2 µM		ΔTm	6.6 ± 0.4 °C
CC(=O)NCC1CCCCN1c1nc(NCCn2nnc(C)n2)nc(N2CC3C(CCOc4cc(-c5scnc5C)ccc4CNC(=O)[C@@H]4C[C@@H](O)CN4C(=O)[C@@H](NC(=O)C4(F)CC4)C(C)(C)C)C3C2)n1 (stereo partly shown)	VHL-elongin C-elongin B and BRD9	SPR	immobilized VHL-elongin C-elongin B		baseline: binary KD over ternary KD	cooperativity alpha	11
CC(=O)NCCN(CC(=O)NCCN(CC(=O)NCCN(CC(=O)NCCC(N)=O)C(=O)C[C@@H](N)Cc1ccccc1)C(=O)C[C@@H](N)CCCNC(=N)N)C(=O)C[C@@H](N)CCCNC(=N)N	HIV-1 TAR RNA	RNA thermal stability, UV melting		1 µM, pH 7.5, added: 1 µM TAR RNA		melting temperature	61 ± 0.1 °C
Fc1ccc(Nc2nc(NC3CCCCC3)c3cc(C(F)(F)F)ccc3n2)cc1F	β2AR/β1AR ECL2/3 chimera	β-arrestin2 recruitment, antagonist, BRET			baseline: isoprenaline maximal response	maximal inhibition	-2.9%
Cc1cn(CC(=O)N(CC(=O)N[C@H]2COC[C@@H]2N(CC(=O)NCCOCCOCC(N)=O)C(=O)Cn2cnc3c(N)ncnc32)[C@H]2COC[C@@H]2NC(=O)CN(C(=O)Cn2cnc3c(N)ncnc32)[C@H]2COC[C@@H]2NC(=O)CN(C(=O)Cn2cnc3c(=O)[nH]c(N)nc32)[C@H]2COC[C@@H]2NC(=O)CN(C(=O)Cn2cc(C)c(=O)[nH]c2=O)[C@H]2COC[C@@H]2NC(=O)CN(C(=O)Cn2cnc3c(=O)[nH]c(N)nc32)[C@H]2COC[C@@H]2NC(=O)CN(C(=O)Cn2cc(C)c(=O)[nH]c2=O)[C@H]2COC[C@@H]2NC(=O)CN(C(=O)Cn2cnc3c(N)ncnc32)[C@H]2COC[C@@H]2NC(=O)CN(C(=O)Cn2cnc3c(=O)[nH]c(N)nc32)[C@H]2COC[C@@H]2N)c(=O)[nH]c1=O	mismatched RNA TG	duplex formation, UV melting			baseline: complementary RNA	ΔTm	-14.4 °C
CN(Cc1ccc(/C=C/C(=O)NO)cc1)CC12CC3CC(CC(C3)C1)C2	dopamine transporter, rat	[11C]β-CFT PET	rat	intraperitoneal, 1 mg/kg, 90 min before tracer		DAT occupancy	no effect
CC(=O)NCC1CCCCN1c1nc(N2CCN(c3nnc[nH]3)CC2)nc(N2CC3C(CCOc4cc(-c5scnc5C)ccc4CNC(=O)[C@@H]4C[C@@H](O)CN4C(=O)[C@@H](NC(=O)C4(F)CC4)C(C)(C)C)C3C2)n1 (stereo partly shown)	VHL-elongin C-elongin B and BRD9	SPR	immobilized VHL-elongin C-elongin B		baseline: binary KD over ternary KD	cooperativity alpha	10
C=CC(=O)N1[C@@H](c2ccc3c(c2)OCO3)c2[nH]c3ccccc3c2C[C@H]1C(=O)N1CCN(C)CC1	human cyclin E1 wild type-3xFLAG:CDK2	co-IP with TMT proteomics, measured: DDX3X		concentration not given, O00571	baseline: wild type DMSO	relative co-enrichment	76%
O=C(N/N=C/c1cc[n+](Cc2ccccc2)c2ccccc12)c1cccc(C(=O)N/N=C/c2cc[n+](Cc3ccccc3)c3ccccc23)n1	MYC parallel G4 DNA	FRET melting		1 µM, DNA 0.2 µM, added: duplex DNA competitor 10 µM		ΔTm	11.1 ± 0.1 °C
O=C(CCCCCOc1ccc2ccccc2c1)N[C@@H](CO)C[C@@H](O)c1ccc(-c2ccccc2)cc1	CERT	HPLC-MS/MS, measured: SM 24:1	HeLa	1 µM, 24 h		sphingomyelin level	127000 pmol/sample and 148000 pmol/sample and 147000 pmol/sample
Nc1ncc2c(n1)-c1c([nH]c3ccc(C4=CCOCC4)cc13)CCC2	FLT3 ITD D835V	scanMAX		1 µM	baseline: control	remaining binding	70%
C[n+]1ccc(/C=N/NC(=O)N/N=C/c2cc[n+](C)cc2)cc1	MYC parallel G4 DNA	FRET melting		1 µM, DNA 0.2 µM		ΔTm	2.4 ± 1.9 °C
C=CC(=O)Nc1cc(-c2nn(C3CCN(CCNC(=O)[C@H](C)CCC45CC6CC(CC(C6)C4)C5)CC3)c3ncnc(N)c23)ccc1Oc1ccccc1	Aurora kinases A, B and C	KiNativ profiling		2 µM		inhibition	15.5%
CCCCCC(O)/C=C/C=O (stereo not shown)	proteome cysteines	IA-probe labelling, competitive isoTOP-ABPP	MDA-MB-231 proteome			IC50	72 µM and 79 µM and 88 µM and 93 µM and 64 µM and 91 µM and 61 µM
Nc1ncc(-c2cc(-c3cnn(CC(F)(F)F)c3)ncc2F)nc1C(=O)NC1CNCC(F)C1 (stereo not shown)	TXK	KINOMEscan		1 µM	baseline: DMSO control	remaining binding	83%
Fc1ccc(Nc2nc(NC3CCCCC3)c3cc(Br)ccc3n2)cc1F	β2AR/β1AR ECL2/3 chimera	β-arrestin2 recruitment, antagonist, BRET		added: isoprenaline 1 µM		pIC50	7
CC[n+]1cccc2cc(/C=N/NC(=O)c3cccc(C(=O)N/N=C/c4ccc5c(ccc[n+]5CC)c4)n3)ccc21	MYC parallel G4 DNA	FRET melting		1 µM, DNA 0.2 µM		ΔTm	8.7 ± 1.9 °C
CCCCCCc1cccc([C@H](O)C[C@H](CO)NC(=O)CCCCCCCCCCBr)c1	CERT	HPLC-MS/MS, measured: SM C16	HeLa	1 µM, 24 h		sphingomyelin level	519000 pmol and 645000 pmol and 636000 pmol
C[n+]1ccc(/C=N/NC(=O)c2ccc3ccc(C(=O)N/N=C/c4cc[n+](C)c5ccccc45)nc3n2)c2ccccc21	hp2 hairpin duplex DNA	FRET melting		1 µM		ΔTm	0.9 ± 0.4 °C
Cc1[nH]nc2c1N=C(c1ccccc1Cl)c1cnc(N3CCOCC3)cc1N2	androgen receptor, human	radioligand binding		10 µM, added: testosterone		inhibition	4%
O=C(N/N=C/c1ccc2c(ccc[n+]2Cc2ccccc2)c1)c1ccc2ccc(C(=O)N/N=C/c3ccc4c(ccc[n+]4Cc4ccccc4)c3)nc2n1	hp2 hairpin duplex DNA	FRET melting		1 µM, added: ds26 10 µM		ΔTm	0.9 ± 0.1 °C
CCCCCCc1cccc(C(O)CC(CO)NC(=O)CCCCCCCCCCNC(C)=O)c1 (stereo not shown)	CERT	HPLC-MS/MS, measured: total sphingomyelin	HeLa	1 µM, 24 h		sphingomyelin level	786000 pmol/sample and 619000 pmol/sample and 808000 pmol/sample
O=C(N/N=C/c1cc[n+](Cc2ccccc2)c2ccccc12)c1cncc(C(=O)N/N=C/c2cc[n+](Cc3ccccc3)c3ccccc23)n1	hp2 hairpin duplex DNA	FRET melting		1 µM, added: ds26 10 µM		ΔTm	1.1 °C
c1ccc(-c2n[nH]cc2-c2ccnc3ccccc23)nc1	SHA3 (Candida albicans)	kinase binding, MIB/MS competition	Candida albicans lysate	10 µM	baseline: DMSO	log2 fold change	-0.28
O=C(N/N=C/c1cc[n+](Cc2ccccc2)c2ccccc12)N/N=C/c1cc[n+](Cc2ccccc2)c2ccccc12	hp2 hairpin duplex DNA	FRET melting		1 µM, added: ds26 10 µM		ΔTm	1 ± 0.1 °C
C=CC(=O)Nc1cccc(Cn2ncc3cnc(Nc4cnn(CCOC)c4)nc32)c1	AKT2 human	binding, KINOMEscan		100 nM	lower = stronger binding	percent of control	100%

Excerpt of the above:
Structure (SMILES)	target	assay	test system	conditions	scale	quantity	value
Cc1cn(CC(=O)N(CC(=O)N[C@H]2COC[C@@H]2N(CC(=O)NCCOCCOCC(N)=O)C(=O)Cn2cnc3c(N)ncnc32)[C@H]2COC[C@@H]2NC(=O)CN(C(=O)Cn2cnc3c(N)ncnc32)[C@H]2COC[C@@H]2NC(=O)CN(C(=O)Cn2cnc3c(=O)[nH]c(N)nc32)[C@H]2COC[C@@H]2NC(=O)CN(C(=O)Cn2cc(C)c(=O)[nH]c2=O)[C@H]2COC[C@@H]2NC(=O)CN(C(=O)Cn2cnc3c(=O)[nH]c(N)nc32)[C@H]2COC[C@@H]2NC(=O)CN(C(=O)Cn2cc(C)c(=O)[nH]c2=O)[C@H]2COC[C@@H]2NC(=O)CN(C(=O)Cn2cnc3c(N)ncnc32)[C@H]2COC[C@@H]2NC(=O)CN(C(=O)Cn2cnc3c(=O)[nH]c(N)nc32)[C@H]2COC[C@@H]2N)c(=O)[nH]c1=O	mismatched RNA TG	duplex formation, UV melting			baseline: complementary RNA	ΔTm	-14.4 °C
CN(Cc1ccc(/C=C/C(=O)NO)cc1)CC12CC3CC(CC(C3)C1)C2	dopamine transporter, rat	[11C]β-CFT PET	rat	intraperitoneal, 1 mg/kg, 90 min before tracer		DAT occupancy	no effect
CC(=O)NCC1CCCCN1c1nc(N2CCN(c3nnc[nH]3)CC2)nc(N2CC3C(CCOc4cc(-c5scnc5C)ccc4CNC(=O)[C@@H]4C[C@@H](O)CN4C(=O)[C@@H](NC(=O)C4(F)CC4)C(C)(C)C)C3C2)n1 (stereo partly shown)	VHL-elongin C-elongin B and BRD9	SPR	immobilized VHL-elongin C-elongin B		baseline: binary KD over ternary KD	cooperativity alpha	10
C=CC(=O)N1[C@@H](c2ccc3c(c2)OCO3)c2[nH]c3ccccc3c2C[C@H]1C(=O)N1CCN(C)CC1	human cyclin E1 wild type-3xFLAG:CDK2	co-IP with TMT proteomics, measured: DDX3X		concentration not given, O00571	baseline: wild type DMSO	relative co-enrichment	76%
